Experimental data of several laboratories.
Numbered parts are unrelated; each lists some results of a single study.

Series 1
Target: Transcription factor Sp1 (SP1, Homo sapiens, UniProt P08047, residues 1-785, full length assumed)
UniProt P08047, sequence (whole entry, looked up): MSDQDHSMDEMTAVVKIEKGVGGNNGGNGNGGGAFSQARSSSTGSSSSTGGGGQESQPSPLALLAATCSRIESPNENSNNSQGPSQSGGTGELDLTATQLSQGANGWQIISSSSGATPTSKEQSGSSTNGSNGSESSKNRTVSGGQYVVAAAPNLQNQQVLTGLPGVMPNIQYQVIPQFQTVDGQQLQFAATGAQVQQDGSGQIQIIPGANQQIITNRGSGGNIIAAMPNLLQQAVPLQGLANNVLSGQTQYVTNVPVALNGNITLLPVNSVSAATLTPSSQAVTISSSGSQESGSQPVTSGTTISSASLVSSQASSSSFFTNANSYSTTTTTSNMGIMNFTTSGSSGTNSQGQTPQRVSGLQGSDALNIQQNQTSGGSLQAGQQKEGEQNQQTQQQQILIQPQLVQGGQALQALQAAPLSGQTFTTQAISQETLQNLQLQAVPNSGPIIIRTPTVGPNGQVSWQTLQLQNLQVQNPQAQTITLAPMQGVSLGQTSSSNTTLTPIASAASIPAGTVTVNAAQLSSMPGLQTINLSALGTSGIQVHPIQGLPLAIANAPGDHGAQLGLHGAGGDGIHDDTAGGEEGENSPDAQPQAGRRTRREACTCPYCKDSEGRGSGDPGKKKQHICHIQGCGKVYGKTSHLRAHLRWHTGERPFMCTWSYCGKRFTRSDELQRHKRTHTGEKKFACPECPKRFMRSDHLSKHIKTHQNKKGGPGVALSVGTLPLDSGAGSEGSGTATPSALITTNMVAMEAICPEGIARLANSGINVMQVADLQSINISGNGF
Method: protein-binding microarray
Form: double-stranded DNA, one strand shown
Medium: in vitro
Concentration: not given
Notes: k-mer, scored over probes, only values ≥0.25
Direction: higher = stronger binding
Quantity: E-score
AGTGGGAT: 0.299
TATCCCCA: 0.357
GGGGCGTA: 0.474

Series 2
Target: Sal-like protein 4, full length isoform B (SALL4, Homo sapiens, UniProt Q9UJQ4-2, residues 1-616)
Method: universal PBM
Form: double-stranded DNA, one strand shown
Medium: in vitro
Concentration: not given
Notes: 8-mer, flanks averaged, mean of replicates
Direction: higher = stronger binding
Quantity: E-score
ATCCGAAT: 0.137
ACGACGCC: -0.238
CCCCATTA: -0.0613
GGAGATAC: -0.208

Series 3
Target: PABPC1L2, full length, GST fusion (mouse, UniProt A0ABA7IW68)
Method: RNAcompete
Form: RNA
Medium: in vitro
Concentration: 20 nM
Notes: 7-mer, probes averaged, single round
Reference: mean of 7-mers
Direction: higher = stronger binding
Quantity: 7-mer Z-score
Target sequence (chain): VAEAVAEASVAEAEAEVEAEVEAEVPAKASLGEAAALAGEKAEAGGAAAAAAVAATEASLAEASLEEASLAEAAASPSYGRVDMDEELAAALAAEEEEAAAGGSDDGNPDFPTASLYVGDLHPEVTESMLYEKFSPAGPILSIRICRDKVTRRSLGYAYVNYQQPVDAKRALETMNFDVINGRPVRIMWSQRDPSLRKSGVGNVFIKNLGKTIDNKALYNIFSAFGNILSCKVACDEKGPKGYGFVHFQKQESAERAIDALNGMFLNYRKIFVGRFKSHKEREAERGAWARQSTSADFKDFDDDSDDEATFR
UUCAUCG: -0.458
UCACGAA: 0.195
AGCGCGG: 0.017
GUCGCUC: -0.325

Other studies, line by line
PhoQ, residues 284 288 289 292 302 303 ALASRC — fold induction (PhoP, residues 12 14 15 18 19 FWNTL (Escherichia coli, UniProt P23836); Sort-seq, refers to: YFP reporter; E. coli; PhoQ-PhoP variant library, with: 10 µM Mg2+; reference: high Mg2+ state, higher = stronger signaling): 5.11

Some of these lines once more (series 1):
AGTGGGAT: 0.299
